Measurements of several laboratories.
Lines come from different studies, so protocols differ. ± gives the spread as reported.
Target: Cytochrome P450 2E1 (CYP2E1, Homo sapiens, UniProt P05181)
UniProt P05181, sequence (whole entry, looked up): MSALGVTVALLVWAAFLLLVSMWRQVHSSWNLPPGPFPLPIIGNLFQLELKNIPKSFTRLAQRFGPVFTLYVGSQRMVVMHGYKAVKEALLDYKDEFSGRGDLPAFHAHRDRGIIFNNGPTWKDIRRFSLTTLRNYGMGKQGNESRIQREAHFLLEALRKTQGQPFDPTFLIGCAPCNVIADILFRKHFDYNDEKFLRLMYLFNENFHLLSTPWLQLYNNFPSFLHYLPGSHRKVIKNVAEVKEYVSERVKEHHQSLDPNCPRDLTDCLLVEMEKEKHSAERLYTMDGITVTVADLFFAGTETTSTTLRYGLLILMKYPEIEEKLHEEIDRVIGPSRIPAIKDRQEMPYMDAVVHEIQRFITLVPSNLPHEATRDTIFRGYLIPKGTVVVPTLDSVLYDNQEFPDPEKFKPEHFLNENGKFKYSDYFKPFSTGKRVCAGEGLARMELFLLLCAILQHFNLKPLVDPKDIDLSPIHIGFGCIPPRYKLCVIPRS

Under inhibition, `CN(C(=O)n1cnc(-c2ccc[n+]([O-])c2)c1)C1CCCCC1` is recorded as “no effect” (enzyme activity, inhibitor; pooled human liver microsomes; 0.1 to 30 µg/mL).
For `S=C=NCc1ccccc1`, the inhibition was 74% (enzyme activity, inhibitor; human liver microsomes; concentration not given, with: chlorzoxazone).
`CCc1oc2ccccc2c1C(=O)c1cc(Br)c(OC)c(Br)c1` gave an IC50 of 51 µM (p-nitrophenol hydroxylation, inhibitor; with additive 100 µM).
With `C=CCN=C=S` the inhibition was 58% (enzyme activity, inhibitor; human liver microsomes; concentration not given, with: chlorzoxazone).
The Ki of `c1ccc2cnccc2c1` is reported as 0.738 ± 0.253 µM (inhibitor; reconstituted CYP-CPR-b5 system; mixed inhibition model, with: p-nitrophenol).
`C[C@H]1CN(C2COC2)CCN1c1ccc(Nc2cc(-c3ccnc(N4CCn5c(cc6c5CC(C)(C)C6)C4=O)c3CO)cn(C)c2=O)nc1` has a remaining compound of 96.6 ± 9.7% (substrate; recombinant enzyme; 1 µM, 60 min).
The remaining activity of `C=CC(O)CO` (centres unmarked) is reported as 0% (4-nitrophenol hydroxylation, inhibitor; concentration not given, 30 min, pH 7.4, with: 4-nitrophenol 50 µM).
For `CCc1oc2ccccc2c1C(=O)c1cc(I)c(OC)c(I)c1`, the IC50 was 76 µM (p-nitrophenol hydroxylation, inhibitor; with additive 100 µM).
The half-life of `N#C[C@H](C[C@@H]1CCCNC1=O)NC(=O)[C@H](CC1CC1)NC(=O)c1cc2cccc(Cl)c2[nH]1` is reported as > 2.13 h (NADPH metabolic stability; 2 µM, pH 7.4, 37 °C, 100 pmol/mL enzyme).
With `OCCC(O)CO` (centres unmarked) the remaining activity was 0% (4-nitrophenol hydroxylation, inhibitor; concentration not given, 30 min, pH 7.4, with: 4-nitrophenol 50 µM).
`CCCCC1=NC2(CCCC2)C(=O)N1Cc1ccc(-c2ccccc2S(=O)(=O)Nc2noc(C)c2C)c(COCC)c1` has a CLint of 0.00275 µL/min/pmol (human liver microsomes).

A few entries again:
For `S=C=NCc1ccccc1`, the inhibition was 74% (enzyme activity, inhibitor; human liver microsomes; concentration not given, with: chlorzoxazone).
